# Assay results pooled from the literature.
# Numbered parts are unrelated; each lists some results of a single study.
# Sequence of UniProt P61075 (whole entry, looked up): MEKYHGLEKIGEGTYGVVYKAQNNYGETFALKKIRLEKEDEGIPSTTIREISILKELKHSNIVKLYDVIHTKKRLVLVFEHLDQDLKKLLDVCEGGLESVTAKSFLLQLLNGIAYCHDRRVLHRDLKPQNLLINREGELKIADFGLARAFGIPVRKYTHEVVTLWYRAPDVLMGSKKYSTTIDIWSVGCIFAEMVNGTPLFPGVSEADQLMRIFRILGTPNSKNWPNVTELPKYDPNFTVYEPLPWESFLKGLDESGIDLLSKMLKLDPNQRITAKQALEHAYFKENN
# Sequence of UniProt P50406 (whole entry, looked up): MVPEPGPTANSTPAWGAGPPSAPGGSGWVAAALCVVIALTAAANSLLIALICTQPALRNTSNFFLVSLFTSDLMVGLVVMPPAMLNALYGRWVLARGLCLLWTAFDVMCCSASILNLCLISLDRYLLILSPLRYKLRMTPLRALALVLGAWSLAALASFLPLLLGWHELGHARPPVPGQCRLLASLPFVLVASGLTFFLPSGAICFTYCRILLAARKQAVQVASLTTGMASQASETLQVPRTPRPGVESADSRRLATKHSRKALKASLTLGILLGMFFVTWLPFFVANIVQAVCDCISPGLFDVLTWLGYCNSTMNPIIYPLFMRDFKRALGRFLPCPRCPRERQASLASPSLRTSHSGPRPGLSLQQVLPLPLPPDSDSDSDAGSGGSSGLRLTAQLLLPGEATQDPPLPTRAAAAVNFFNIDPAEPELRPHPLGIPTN

# Set 1
# Cell line: HEK-293T/ACE2
# Tested at: 10 µM
# Time: 16 h
# Relative to: vehicle
Compound,viability
COc1cnc(NS(=O)(=O)c2ccc(N)cc2)nc1,104%
C[C@@H]1O[C@@H](OC[C@H]2O[C@@H](Oc3c(-c4ccc(O)c(O)c4)oc4cc(O)cc(O)c4c3=O)[C@H](O)[C@@H](O)[C@@H]2O)[C@H](O)[C@H](O)[C@H]1O,105%
Nc1nc2[nH]cc(CCc3ccc(C(=O)N[C@@H](CCC(=O)O)C(=O)O)cc3)c2c(=O)[nH]1,81.7%
CN(C/C=C/C#CC(C)(C)C)Cc1cccc2ccccc12,97.6%
CC(C)c1nc(CN(C)C(=O)N[C@H](C(=O)N[C@@H](Cc2ccccc2)C[C@H](O)[C@H](Cc2ccccc2)NC(=O)OCc2cncs2)C(C)C)cs1,103%

# Mixed results
SMILES,tested on,assay,conditions,scale,measurement,value
CN1CCN(C(=O)O[C@H]2c3nccnc3C(=O)N2c2ccc(Cl)cn2)CC1,mouse MPNST tumor cells,"high-content immunofluorescence imaging, item: nuclear SOX9","10 µM, 12 h, mean of 2 replicates","relative to: DMSO control, higher = more nuclear SOX9",nuclear SOX9 intensity,101 % of DMSO
COc1cccc(CNC(=O)c2nc3scc(COCc4ccc(C(=O)O)cc4)c3c(=O)[nH]2)c1,"CRK2 (Plasmodium falciparum, UniProt P61075)","cell-free assay, competition with immobilised ligand",1 µM,,remaining binding,72.5%
NCC(CC(=O)O)c1ccc(Cl)cc1 (stereo not shown),HaCaT,,"100 µM, 60 h",,viability,118%
CNC(=O)c1cc(C(=O)NC2CC2)cn(Cc2ccccc2)c1=O,"HTR6 (Homo sapiens, UniProt P50406)","binding, radioligand binding",10 µM,,inhibition,10.9%
COC[C@@H](NC(C)=O)C(=O)NCc1ccccc1,HaCaT,,"100 µM, 60 h",,viability,150%

# Repeated from above (mixed results):
SMILES,tested on,assay,conditions,scale,measurement,value
CNC(=O)c1cc(C(=O)NC2CC2)cn(Cc2ccccc2)c1=O,"HTR6 (Homo sapiens, UniProt P50406)","binding, radioligand binding",10 µM,,inhibition,10.9%
NCC(CC(=O)O)c1ccc(Cl)cc1 (stereo not shown),HaCaT,,"100 µM, 60 h",,viability,118%
